Results pooled from the literature.
A part holds a random share of what one study measured. Substitutions count along the parent as printed.
Sequence of UniProt P29322 (whole entry, looked up): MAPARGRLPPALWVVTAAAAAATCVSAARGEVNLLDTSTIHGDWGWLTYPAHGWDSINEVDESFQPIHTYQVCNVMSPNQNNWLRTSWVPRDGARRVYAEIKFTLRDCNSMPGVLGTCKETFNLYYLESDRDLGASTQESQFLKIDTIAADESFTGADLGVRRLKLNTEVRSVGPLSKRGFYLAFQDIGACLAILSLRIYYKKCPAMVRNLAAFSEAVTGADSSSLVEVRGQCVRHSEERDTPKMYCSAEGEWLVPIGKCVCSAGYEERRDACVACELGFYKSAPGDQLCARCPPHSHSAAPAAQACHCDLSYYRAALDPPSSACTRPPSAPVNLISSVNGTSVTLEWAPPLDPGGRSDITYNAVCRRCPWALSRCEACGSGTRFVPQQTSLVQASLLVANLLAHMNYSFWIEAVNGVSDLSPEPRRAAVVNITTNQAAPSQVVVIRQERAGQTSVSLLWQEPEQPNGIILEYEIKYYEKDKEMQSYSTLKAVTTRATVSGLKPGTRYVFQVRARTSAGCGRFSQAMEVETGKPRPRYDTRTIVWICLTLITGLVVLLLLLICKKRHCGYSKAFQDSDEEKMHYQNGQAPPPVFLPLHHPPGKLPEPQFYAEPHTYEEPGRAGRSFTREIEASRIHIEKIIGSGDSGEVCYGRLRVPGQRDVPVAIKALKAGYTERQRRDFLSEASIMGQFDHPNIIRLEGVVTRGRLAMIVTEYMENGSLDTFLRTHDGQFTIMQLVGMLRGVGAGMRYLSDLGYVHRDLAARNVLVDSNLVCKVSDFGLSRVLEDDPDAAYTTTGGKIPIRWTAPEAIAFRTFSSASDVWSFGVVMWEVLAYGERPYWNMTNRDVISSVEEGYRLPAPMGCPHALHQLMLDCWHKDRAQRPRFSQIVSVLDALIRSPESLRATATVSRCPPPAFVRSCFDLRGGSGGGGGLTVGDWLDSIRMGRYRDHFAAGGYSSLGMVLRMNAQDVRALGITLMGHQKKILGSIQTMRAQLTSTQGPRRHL
Sequence of UniProt Q8TDX7 (whole entry, looked up): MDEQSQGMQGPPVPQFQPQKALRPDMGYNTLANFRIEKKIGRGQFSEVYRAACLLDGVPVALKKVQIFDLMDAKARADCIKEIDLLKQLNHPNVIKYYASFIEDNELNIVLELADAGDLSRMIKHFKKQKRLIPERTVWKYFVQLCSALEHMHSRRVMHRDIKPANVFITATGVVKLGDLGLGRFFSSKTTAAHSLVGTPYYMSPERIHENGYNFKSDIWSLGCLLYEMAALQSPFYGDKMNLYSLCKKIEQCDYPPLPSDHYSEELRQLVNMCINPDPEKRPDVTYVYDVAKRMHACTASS
Sequence of UniProt Q9BUB5 (whole entry, looked up): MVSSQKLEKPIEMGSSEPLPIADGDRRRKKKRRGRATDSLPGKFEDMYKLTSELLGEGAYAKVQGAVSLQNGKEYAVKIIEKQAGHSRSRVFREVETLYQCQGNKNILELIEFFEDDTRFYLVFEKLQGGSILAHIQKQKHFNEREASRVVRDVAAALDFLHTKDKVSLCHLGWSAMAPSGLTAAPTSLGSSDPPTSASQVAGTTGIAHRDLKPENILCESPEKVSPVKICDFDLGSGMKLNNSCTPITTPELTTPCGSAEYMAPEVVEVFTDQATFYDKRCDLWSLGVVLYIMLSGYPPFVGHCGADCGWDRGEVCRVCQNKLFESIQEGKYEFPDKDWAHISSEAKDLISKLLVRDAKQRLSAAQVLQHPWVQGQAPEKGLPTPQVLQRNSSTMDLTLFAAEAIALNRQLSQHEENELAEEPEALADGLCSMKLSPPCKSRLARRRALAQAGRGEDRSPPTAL
Sequence of UniProt Q9BYT3 (whole entry, looked up): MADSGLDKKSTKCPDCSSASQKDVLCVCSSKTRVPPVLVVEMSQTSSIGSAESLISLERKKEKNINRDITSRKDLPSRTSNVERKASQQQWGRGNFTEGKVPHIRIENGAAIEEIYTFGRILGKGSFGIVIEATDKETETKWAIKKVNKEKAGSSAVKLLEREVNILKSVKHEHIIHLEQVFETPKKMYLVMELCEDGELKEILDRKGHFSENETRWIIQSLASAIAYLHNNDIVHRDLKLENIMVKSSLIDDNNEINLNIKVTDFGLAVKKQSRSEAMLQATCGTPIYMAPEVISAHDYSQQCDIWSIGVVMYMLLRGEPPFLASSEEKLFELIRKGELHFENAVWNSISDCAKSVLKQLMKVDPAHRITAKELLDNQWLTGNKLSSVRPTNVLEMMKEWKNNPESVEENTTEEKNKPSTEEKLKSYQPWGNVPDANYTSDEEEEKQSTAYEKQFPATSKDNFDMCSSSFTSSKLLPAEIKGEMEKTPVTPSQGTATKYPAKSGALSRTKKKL

Block 1 — effect on: enzyme activity; mode: inhibitor; concentration: 0.5 µM; baseline: control
SMILES: CCn1cnc2c(Nc3cccc(Cl)c3)nc(N[C@H]3CCCC[C@H]3N)nc21
target	remaining activity
EPHA8 (Homo sapiens, UniProt P29322)	93%
NEK7 (Homo sapiens, UniProt Q8TDX7)	86%
MKNK1 (Homo sapiens, UniProt Q9BUB5)	101%

Block 2 — cell line: Huh-7; concentration: 10 µM; time: 24 h
Compound	viability [%]
COc1cccc([C@@]2(O)CCCC[C@@H]2CN(C)C)c1	97.8
CNC(C)(C)Cc1ccccc1	98.8
CC(C)CC(N(C)C)C1(c2ccc(Cl)cc2)CCC1 (stereo not shown)	98.8

Block 3 — effect on: binding; method: radioligand binding; concentration: 10 µM
Target: Muscarinic acetylcholine receptor M3 (CHRM3, Homo sapiens, UniProt P20309)
Sequence of UniProt P20309 (whole entry, looked up): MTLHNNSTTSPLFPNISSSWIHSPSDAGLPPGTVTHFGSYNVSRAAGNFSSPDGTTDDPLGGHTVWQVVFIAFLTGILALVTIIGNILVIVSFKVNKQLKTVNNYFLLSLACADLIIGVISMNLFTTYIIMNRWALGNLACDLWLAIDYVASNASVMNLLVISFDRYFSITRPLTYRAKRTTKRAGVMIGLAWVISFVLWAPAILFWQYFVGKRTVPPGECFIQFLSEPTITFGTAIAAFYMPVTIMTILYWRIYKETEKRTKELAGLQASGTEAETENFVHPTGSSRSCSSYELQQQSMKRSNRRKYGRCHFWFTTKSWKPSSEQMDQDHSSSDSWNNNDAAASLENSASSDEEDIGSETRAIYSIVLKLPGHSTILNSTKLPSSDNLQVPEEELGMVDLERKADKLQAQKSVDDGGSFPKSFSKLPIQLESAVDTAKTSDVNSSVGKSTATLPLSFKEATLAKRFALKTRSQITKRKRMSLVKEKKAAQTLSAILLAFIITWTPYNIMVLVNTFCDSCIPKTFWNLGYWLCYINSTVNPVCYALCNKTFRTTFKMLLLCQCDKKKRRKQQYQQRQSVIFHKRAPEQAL
Compound	inhibition [%]
CCOC(=O)c1cc2cc(-c3cc(C(=O)NCc4ccc(C(=O)O)cc4)nn3C)ccc2[nH]1	4.89
CC(=O)Nc1nc(CN2CCC[C@H](Cc3cc(C)nc(C)c3)C2)cs1	-9.98
O=C1CCc2cc(Nc3cc(OC4CCOCC4)c([N+](=O)[O-])cc3Cl)ccc2N1	-11.4
O=C1c2ccc(Nc3ccc(F)cc3F)cc2CCc2ccc(OC[C@H](O)CO)cc21	11.2
CNC(=O)c1cc(C(=O)NC2CC2)cn(Cc2ccccc2)c1=O	21.4
Cc1nc(N2CC[C@@H](O)C2)ncc1-c1cc(C(F)(F)F)cc2[nH]ncc12	-2.13
O=C(Nc1cccnn1)N1CC(CC=Cc2cncc(Oc3ccc(C(F)(F)F)cn3)n2)C1	0.26
Cc1nc(C2CCN(C(=O)c3ccc(OC(F)(F)F)cc3N)CC2)c2ncc(N3CCN(C)CC3)cc2n1	18.6
C[C@H](NC(=O)c1cnc2n1[C@](C)(Cc1ccc(C#N)cc1)C(=O)N2c1cc(Cl)c(F)c(Cl)c1)C(=O)NC1(c2ccccn2)CC1	-20.4
Cc1nccc(COC(=O)N2C[C@@H]3[C@@H](CNC(=O)c4ccc5[nH]nnc5c4)[C@@H]3C2)n1	-15.3
CC(=O)c1c(NS(C)(=O)=O)c2cc(-c3ccc(Cl)cc3)c(-c3ccc(Cl)cc3Cl)nc2n(C)c1=O	4.36
CCOCCn1cc(C(=O)Nc2ccc(-n3nc(-c4cccnc4)cc3C(F)(F)F)cn2)ccc1=O	10.2
Cc1c(NC(=O)c2cc(C(N)=O)nc3cc(F)ccc23)c(C(F)(F)F)nn1Cc1ccc(C(C)(C)C)cc1	1.86
C[C@@]1(Cc2ccc(C#N)cc2)C(=O)N(c2cc(Cl)cc(Cl)c2)c2ncc(C(=O)NC3(c4nc(C5CCC5)no4)CC3)n21	-17.9
CN(C)C(=O)Cn1cc(-c2nc([C@@](C)(c3ccc(-c4cnc(N)nc4)cc3)C3CC3)no2)cn1	7.43

Block 4 — target: vanadate, free oxyanion; method: microfluidic competitive inhibition; medium: in vitro, cell-free expressed; concentration: not given; direction: lower = stronger binding
Notes: derived from inhibition constants, unchanged parent 676 nM
Starting sequence: PafA, mature enzyme, eGFP fusion (Elizabethkingia meningoseptica, UniProt Q9KJX5); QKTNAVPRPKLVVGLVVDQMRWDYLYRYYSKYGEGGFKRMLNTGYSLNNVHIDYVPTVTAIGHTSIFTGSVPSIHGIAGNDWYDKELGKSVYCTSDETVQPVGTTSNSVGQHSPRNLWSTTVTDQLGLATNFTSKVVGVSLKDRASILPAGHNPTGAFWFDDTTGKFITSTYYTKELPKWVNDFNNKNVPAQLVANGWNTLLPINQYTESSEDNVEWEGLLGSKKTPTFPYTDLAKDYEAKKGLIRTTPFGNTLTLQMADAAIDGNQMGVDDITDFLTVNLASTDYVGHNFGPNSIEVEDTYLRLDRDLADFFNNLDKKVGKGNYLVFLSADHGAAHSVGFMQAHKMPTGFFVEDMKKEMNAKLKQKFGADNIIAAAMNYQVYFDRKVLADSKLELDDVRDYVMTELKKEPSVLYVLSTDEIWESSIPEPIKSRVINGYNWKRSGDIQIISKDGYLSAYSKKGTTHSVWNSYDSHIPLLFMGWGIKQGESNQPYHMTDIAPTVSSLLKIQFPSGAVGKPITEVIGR
Substitution	oxyanion analog dissociation constant [nM]
G438V	695
W118V	652
K224G	588
D371G	614
L47V	597
A336G	525
A240G	715
D161V	550

Mixed results
Structure (SMILES)	target or system	assay	test system	conditions	endpoint	result
CCC(=O)O[C@H]1CC[C@H]2[C@@H]3CC[C@H]4CC(=O)[C@H](C)C[C@]4(C)[C@H]3CC[C@]12C	HaCaT	–	–	100 µM, 18 h	viability	107%
Cn1cc(C2=C(c3cn(C4CCN(Cc5ccccn5)CC4)c4ccccc34)C(=O)NC2=O)c2ccccc21	–	AlphaScreen signal, AlphaScreen counter screen	His6 peptide without bromodomain	50 µM, assay interference check	inhibition	80.3%
C[C@]12CCC(=O)C=C1CC[C@@H]1[C@@H]2C(=O)C[C@]2(C)C(=O)CC[C@@H]12	HaCaT	–	–	100 µM, 18 h	viability	117%
c1ccc2c(c1)CNC(c1ccc3c(c1)OCO3)c1cccn1-2 (stereo not shown)	–	–	human, microsomes or S9	2 µM, 0.5 h	remaining compound	32.3%
CN1C(=O)C(=CNc2cccc(Cl)c2)C(=O)NC1=S	–	AlphaScreen signal, AlphaScreen counter screen	His6 peptide without bromodomain	50 µM, assay interference check	inhibition	13.2%
C=CCCC(CN1C[C@H]2CC=CC[C@H]2C1)Oc1ncc(Cl)cn1 (stereo partly shown)	–	–	human, microsomes or S9	2 µM, 0.5 h	remaining compound	6.81%
COc1ccc(NC=C2C(=O)NC(=O)N(c3ccc(C)cc3)C2=O)cc1	–	AlphaScreen signal, AlphaScreen counter screen	His6 peptide without bromodomain	50 µM, assay interference check	inhibition	-2.2%
C=CC(=O)N1CCC([C@@H]2CCNc3c(C(N)=O)c(-c4ccc(Oc5ccccc5)cc4)nn32)CC1	STK33 (Homo sapiens, UniProt Q9BYT3)	enzyme activity, inhibitor	–	1 µM	inhibition	7%
